Measured values gathered from unrelated publications.
A part holds a random share of what one study measured.

Block 1 — technique: RNA Bind-n-Seq; molecule type: RNA; sample: in vitro; tested at: 365 nM; reference: no-protein control; reading: higher = stronger binding
Target: RNA binding protein fox-1 homolog 2, RRM domain, GST-SBP tag (RBFOX2, Homo sapiens, UniProt O43251-10, residues 100-194)
Setting: natural RNA segment, single round, ends assumed
All sequences stand within: GGGAGUUCUACAGUCCGACGAUC … UGGAAUUCUCGGGUGCCAA
`UCCUCCAUCCACCCUGAGGACCCUGGGGCUCAGUGGAGGCAGGGCCCUGCCCCCCUCCCUUCCGCUCCUGCCCAGCCUGGGGGAAGGAGAAAGGAGGGGAGAAAGCGGGC`: “RBNS enrichment (R)” 0.656.
`GACCUGGAGAUCAUGGUGACUGUAAGCUAAGUCUGUUUUCAUGCCAGAUUUCAGCCCCACCCAGAGUGUGCUCUAGAUGUUGUUGAUUUGAAUGGUUUUCCCAGUUCCCA`: “RBNS enrichment (R)” 0.558.
`CAUCUAGUUAUCAUAAGAAAUAAUUUAAAAGGUUUUGUUGCUGAAAGCAGUAAGUGGUGCAGUAAAAUACUUAAGUUAUUCAAAGAAUGUUAUCUUUCUUGCAAGAGUAA` — result for “RBNS enrichment (R)”: 0.487.
`GUUUUUAAGUUACUUUCGAUGUGUAUACGAACAAAGACCAGGGAGAAACAGAACUUUUAAAACUAUAGGCUGCUGUGUUGGGGCCAGAAAUAAGGUGACAAGUAAAGACU` — result for “RBNS enrichment (R)”: 1.01.
`UAAACUGAUAAAGGGUGUUUAUUUUUACUUUUAGAAUUGGUCCUAUGAAGAAGUAGAAAGUGAGUCAUGCACUAGACAGUGGGCCUAGCUCAUCAGUGGCUAAAGUUGAA`: “RBNS enrichment (R)” 0.8.
Under “RBNS enrichment (R)”, `AGAAUUGAAAGCCUUCGUAUCUUGAACCUCCCAACAUUUUUCUUAUGGCUGUUGAAAAGUAUAGAGCUAAAUUGAUUUAAUUACACUUUCCUUUGUACUUUAAAAAAAAG` is recorded as 0.8.
`ACAUCUGCUCAUUGUCUAAUGCCUGACCCCCAUUCAUUUAGUUAUUCAAUAUAGACUUGCCCAAUUAGCCCAUCGAGCCUCCCUAGGCUUCCCGAUUCUCAGGUCUUCUC`: “RBNS enrichment (R)” 0.649.

Block 2 — technique: aptamer microarray, sandwich; molecule type: DNA with 2'F-ANA; sample: in vitro; tested at: 200 nM; together with: Cy3 exosite-II aptamer, 400 nM; reading: higher = stronger binding; oligonucleotide: GGTTGGTGTGGTTGG
Target: Prothrombin, mature alpha-thrombin (F2, Homo sapiens, UniProt P00734)
Setting: whole 15-mer aptamer, many near background
For `2'F-ANA at 1 2 7 11`, “mean fluorescence intensity” read 162 a.u.
`2'F-ANA at 3 5 8 11 12`: “mean fluorescence intensity” 239 a.u.
`2'F-ANA at 1 2 4 7 12 13` — result for “mean fluorescence intensity”: 218 a.u.
`2'F-ANA at 1 3 5 7 8 9 10 11 13 14`: “mean fluorescence intensity” 53.4 a.u.
`2'F-ANA at 6 7 8` — result for “mean fluorescence intensity”: 569 a.u.

Block 3 — technique: protein-binding microarray; molecule type: double-stranded DNA, one strand shown; sample: in vitro; tested at: 250 nM; setting: 60-bp whole probe; together with: salmon DNA 0.4 mg/ml; reference: random background probes; reading: higher = stronger binding
Target: Interferon regulatory factor 5, full length, phosphomimetic (IRF5, Homo sapiens, UniProt Q13568-2, residues 1-514, K96S/S451D/S453D/S456D/S462D)
`GCCTAGCACTTAGGACTGGACTATCGGGTAGTGCTAGTCTTGATTCGCTTGACGCTGCTG` has a log fluorescence of 1.87 z-score.
The log fluorescence of `GCCTAGCACTCACATATACACTGTGTAACTGTGCTAGTCTTGATTCGCTTGACGCTGCTG` is reported as 0.567 z-score.
`GCCTAGCACTTAGGTCTCCTACTGCTTTAGTGCTAGGTCTTGATTCGCTTGACGCTGCTG` gave a log fluorescence of -0.151 z-score.
`GCCTAGCACTTAGGTTTCGACTTTCGGTGAGTGCTAGTCTTGATTCGCTTGACGCTGCTG` gave a log fluorescence of 9.79 z-score.

Other studies, line by line
The fold induction of `PhoQ, residues 284 288 289 292 302 303 SVHLDV` is reported as 8.66 (PhoP, residues 12 14 15 18 19 LHTVM (Escherichia coli, UniProt P23836); Sort-seq, item: YFP reporter; E. coli; PhoQ-PhoP variant library, together with: 10 µM Mg2+; reference: high Mg2+ state, higher = stronger signaling).

Repeated from above (block 2):
`2'F-ANA at 3 5 8 11 12`: “mean fluorescence intensity” 239 a.u.
`2'F-ANA at 1 2 4 7 12 13` — result for “mean fluorescence intensity”: 218 a.u.
